Experimental data pooled from the literature.
Numbered parts are unrelated; each lists some results of a single study. Substitutions count along the parent as printed.

Sample 1
Target: NFE2L2, bZIP domain (human)
Technique: DHFR protein complementation
Matrix: yeast
Setting: single substitutions, most at no-binding floor
Reference: wild-type JUN-FOS pair
Direction: higher = stronger binding
Starting sequence: JUN, bZIP domain (human); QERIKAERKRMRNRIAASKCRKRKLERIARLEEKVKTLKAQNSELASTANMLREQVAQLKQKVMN; partner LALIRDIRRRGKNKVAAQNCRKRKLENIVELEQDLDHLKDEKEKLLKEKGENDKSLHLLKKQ
`L38C` gave a binding fitness of -1.46 natural log.
`Q41W` gave a binding fitness of -1.44 natural log.
`S47P` has a binding fitness of -1.51 natural log.
The binding fitness of `A40H` is reported as -1.5 natural log.
With `S47H` the binding fitness was -1.5 natural log.
With `E32F` the binding fitness was -1.53 natural log.
`T37R` gave a binding fitness of -1.32 natural log.
For `E44G`, the binding fitness was -1.51 natural log.
The binding fitness of `K39Y` is reported as -1.52 natural log.
The binding fitness of `N42L` is reported as -1.4 natural log.
`A29N` gave a binding fitness of -1.41 natural log.
The binding fitness of `K36W` is reported as -1.49 natural log.
The binding fitness of `V56G` is reported as -1.52 natural log.
The binding fitness of `T48E` is reported as -1.37 natural log.
For `T48R`, the binding fitness was -1.31 natural log.
With `L52Q` the binding fitness was -1.54 natural log.
`A46K` has a binding fitness of -1.42 natural log.

Sample 2
Target: CCND2, cyclin fold, Cln2 fusion (human)
Technique: yeast growth competition, sequencing
Matrix: yeast
Setting: weak parent motif
Reference: not given
Direction: higher = stronger binding
Starting sequence: GMNC docking peptide (human); KNAKRNLSSEFAN
For `KNAKRNLSSELAN [F11L]`, “normalised enrichment score” read 0.184.
Under “normalised enrichment score”, `KNAKRNLGSEFAN [S8G]` is recorded as 0.291.
For `KNAKRNLWSEFAN [S8W]`, “normalised enrichment score” read 0.0901.
For `KNAKRHLSSEFAN [N6H]`, “normalised enrichment score” read -0.313.
For `KNAKRNLSSESAN [F11S]`, “normalised enrichment score” read 0.142.
For `KNAKRNLHSEFAN [S8H]`, “normalised enrichment score” read -0.00547.
For `KNAKRNLSSEFEN [A12E]`, “normalised enrichment score” read 0.441.
Under “normalised enrichment score”, `KNKKRNLSSEFAN [A3K]` is recorded as 0.196.
`KNAGRNLSSEFAN [K4G]`: “normalised enrichment score” 0.26.
`KNAKRYLSSEFAN [N6Y]`: “normalised enrichment score” -0.782.
`KNAKRNLSSSFAN [E10S]` — result for “normalised enrichment score”: -0.122.
`KNAIRNLSSEFAN [K4I]` — result for “normalised enrichment score”: 0.778.
`KNAKRNLSSPFAN [E10P]` — result for “normalised enrichment score”: -0.258.
Under “normalised enrichment score”, `KNAKRNLSSQFAN [E10Q]` is recorded as 0.345.
`KNAKRNLSSDFAN [E10D]` — result for “normalised enrichment score”: -0.334.
For `KNASRNLSSEFAN [K4S]`, “normalised enrichment score” read 0.0974.
Under “normalised enrichment score”, `KNALRNLSSEFAN [K4L]` is recorded as 0.244.
For `KNAKRNLSSVFAN [E10V]`, “normalised enrichment score” read 0.0535.
Under “normalised enrichment score”, `KNAKRNLSEEFAN [S9E]` is recorded as 0.271.
`KNAKRNLSSNFAN [E10N]`: “normalised enrichment score” -0.311.
`KNAKHNLSSEFAN [R5H]` — result for “normalised enrichment score”: 0.0331.
Under “normalised enrichment score”, `KNAKRNLSSEPAN [F11P]` is recorded as -0.439.
`KNAKPNLSSEFAN [R5P]` — result for “normalised enrichment score”: -0.0347.
`KNAKRKLSSEFAN [N6K]`: “normalised enrichment score” -0.0494.
`KNACRNLSSEFAN [K4C]` — result for “normalised enrichment score”: 0.645.

Sample 3
Target: Interferon regulatory factor 5, full length, phosphomimetic (IRF5, Homo sapiens, UniProt Q13568-2, residues 1-514, K96S/S451D/S453D/S456D/S462D)
Technique: protein-binding microarray
Molecule type: double-stranded DNA, one strand shown
Matrix: in vitro
Concentration: 250 nM
Setting: 60-bp whole probe
Added: salmon DNA 0.4 mg/ml
Reference: random background probes
Direction: higher = stronger binding
All sequences stand within: GCCTAGCAC … GTCTTGATTCGCTTGACGCTGCTG
`TCATTTCTCATTCGTCATACTGTGCTA` gave a log fluorescence of 1.58 z-score.
For `TTCGAATTCAGAATGGGAGAGTGCTAG`, the log fluorescence was 0.219 z-score.
`TTAGGTCTCGGTAGCGGTTAGTGCTAG` has a log fluorescence of 0.638 z-score.
`TTTGGACTGGGGACTGGGTTAGTGCTA` gave a log fluorescence of -0.245 z-score.
For `TACGGACTGGACTATCGGGACGTGCTA`, the log fluorescence was 0.856 z-score.
With `TCAGCTTCCTCTTTTTTACTGTGCTAG` the log fluorescence was 0.671 z-score.
With `TCATCTCTAACCTCTCTAACTGTGCTA` the log fluorescence was 0.533 z-score.
For `GGGACTTTGAATTAGAAAGAGTGCTAG`, the log fluorescence was -0.116 z-score.
`TTAGAACTGGACTATCGGTTAGTGCTA` has a log fluorescence of 6.43 z-score.
The log fluorescence of `TCATTTTTTGTAATCGAACTGTGCTAG` is reported as 0.839 z-score.
The log fluorescence of `GACGATCTCAGCCTGGAGACGTGCTAG` is reported as -0.236 z-score.
For `TTCTCAACCAGTTTTCTTTTCGTGCTA`, the log fluorescence was 1.5 z-score.
The log fluorescence of `GACGAATTGAGACTGGAGACGTGCTAG` is reported as -0.132 z-score.
With `GACGATATCGGGTATCGGGACGTGCTA` the log fluorescence was 2.57 z-score.
With `GACGGTATCCTTTTTCTGACGTGCTAG` the log fluorescence was 0.547 z-score.
`GACGGTTTCCCTATCCTGACGTGCTAG` has a log fluorescence of 0.643 z-score.
`GCCGATTTCAGTTTCGAGACGTGCTAG` has a log fluorescence of 7.09 z-score.
`GACGAACTGGGGACAGGAGACGTGCTA` gave a log fluorescence of -0.274 z-score.
For `GACGGTATCTGTATCGGGACGTGCTAG`, the log fluorescence was 1.71 z-score.
The log fluorescence of `TCAGATTTCGGGTATCGATTAGTGCTA` is reported as 7.17 z-score.
For `GACGGGTTCGGTCTCGGGACGTGCTAG`, the log fluorescence was -0.0455 z-score.
The log fluorescence of `TTAGATTTCGGGTGTCGATTAGTGCTA` is reported as 4.95 z-score.
With `GTTTTACTTTCTATCTCTGTGTGCTAG` the log fluorescence was 6.17 z-score.
With `GACGATTTCGGGTTTCGAGAAGTGCTA` the log fluorescence was 5.3 z-score.

Sample 4
Target: RNA binding protein fox-1 homolog 2, RRM domain, GST-SBP tag (RBFOX2, Homo sapiens, UniProt O43251-10, residues 100-194)
Technique: RNA Bind-n-Seq
Molecule type: RNA
Matrix: in vitro
Concentration: 365 nM
Setting: natural RNA segment, single round, ends assumed
Reference: no-protein control
Direction: higher = stronger binding
All sequences stand within: GGGAGUUCUACAGUCCGACGAUC … UGGAAUUCUCGGGUGCCAA
Residues (chain): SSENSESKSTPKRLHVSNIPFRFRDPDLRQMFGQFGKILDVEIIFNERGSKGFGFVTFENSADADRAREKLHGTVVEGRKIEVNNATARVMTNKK
Under “RBNS enrichment (R)”, `GUGCAAAUAGAAUUAGCAGUAAGAAGCUACUCUAGCUAAUUUGCCAUUUUACUUAAAUGGAAAAUGUUUUUCAAAUAAAUACUUAUGUUGUUCAUGUUCCAAGUUAUUCA` is recorded as 0.549.
`GGCAUGGUGGCACACGCCUGUAAUCCCAGCUACACCUGAGGCUGAGGCAGGAGAAUUGCUUGAACCGGGGAGACGGAGGUUGCAGUGAGCCGAGUUUGGGCCACUGCACU`: “RBNS enrichment (R)” 3.18.
Under “RBNS enrichment (R)”, `CAUUGCACUGCUCGCAGCUCCCUGCUCAGACUUCACCCCAAGCUGAAGCCUCCAGAGGGACAGCAGGGACGAGCCACACUCAACCCCCCCCCUGCACAUCAGGUCUGAGA` is recorded as 0.351.
For `GCCAUCCUGAAGGCCCUUCCCCAUAGGCGCUGAAGCUGGAGCUGGCGGGACCCCACCACGAGUGCUUCCAGAACCGCAACAGGAUAUCAGUCCUGCAUCUUCUGUGUAGU`, “RBNS enrichment (R)” read 0.303.
`CAUAUGCCCCUGUGCCCAGUGGUUGAUGAUACCACCACCACCUGCCUACCCAUGGGCCCAAGUUUCUGUGGCUCAUUACAGGGCAUCUGACCCCUGCCACCCAGCAUAGA`: “RBNS enrichment (R)” 0.328.
`UUUGGGACCAAAGUCCUCUCCUUAGUGCGCCUACUUCCUGUGGGCAUCAUGCCACUUGGAACUUAUUGGAACUGGCCCGGGAGACUCUGCAGUCUGCGCCGUUUGAAAAC` — result for “RBNS enrichment (R)”: 0.648.
`CACCAGGCUGCAGCCUCCCCAAUCCCAGCCCACUUUGCUGUGUCUCUGGCGGGCUGUCCUCCUUGGUGGGAGCUGUCCUGCACACUGUAGGAUGCUUAAAGGUAUCCCUG` — result for “RBNS enrichment (R)”: 0.267.
Under “RBNS enrichment (R)”, `AUUAACUUAAAAAAAUAUACACUGCUUCCCAUAAACUGCUAGUUCAUCUCUCGGUACAAAGGAGUUACUAUCAUAUAAAGACUCAUCUGAAAGAAUUGUUAAUGAAACCU` is recorded as 0.319.
`ACAGGUUGAUGCAAGAGGUGGAAAUGUUCUCCAUAUCAAGAUGUGGCCCAAGGGGUUAAGUGGGAACAAUCAUUAUACGGACUCUUCAGAUUUACAGAGAACUUACACUU`: “RBNS enrichment (R)” 0.96.
Under “RBNS enrichment (R)”, `AUGGCGACUGGAAGACCAUUCCAACCUUGAAUCGUUACAGCGAUAGCAUAUCCUAUCCAACCAUACUAACGUGGACACCCACACCUCCCCUCAGAACUUCAAAAGGGCAA` is recorded as 0.342.
`UUUGAUUCAGUAUUAACAGAUCUUGACUACACUAAUUCUUUAUAUUAUAGAACCAACGGAAAUAUGGGCACUAUUUUGAAUUCUAGAGAUGGUUUUUGUUAAAUCUACUA`: “RBNS enrichment (R)” 0.429.
For `UGUAAAUAAUAUGUACUUUGGGUUUUUAACACCGCAUGUAAAGUCAAAAUAAAAUAUCCAAGUCAUUACAUCCUGCCUUUUGAUGUUAACAGGUUUGCACUGCGUCAUGC`, “RBNS enrichment (R)” read 30.4.

Other studies, line by line
With `PhoQ, residues 284 288 289 292 302 303 QWGLFV` the fold induction was 1.59 (PhoP, residues 12 14 15 18 19 GQAIL (Escherichia coli, UniProt P23836); Sort-seq, measured: YFP reporter; E. coli; PhoQ-PhoP variant library, added: 10 µM Mg2+; reference: high Mg2+ state, higher = stronger signaling).

Some of these lines once more (sample 3):
`TTTGGACTGGGGACTGGGTTAGTGCTA` gave a log fluorescence of -0.245 z-score.
For `TACGGACTGGACTATCGGGACGTGCTA`, the log fluorescence was 0.856 z-score.
With `TCAGCTTCCTCTTTTTTACTGTGCTAG` the log fluorescence was 0.671 z-score.
With `TCATCTCTAACCTCTCTAACTGTGCTA` the log fluorescence was 0.533 z-score.
For `GGGACTTTGAATTAGAAAGAGTGCTAG`, the log fluorescence was -0.116 z-score.
`TTAGAACTGGACTATCGGTTAGTGCTA` has a log fluorescence of 6.43 z-score.
The log fluorescence of `TCATTTTTTGTAATCGAACTGTGCTAG` is reported as 0.839 z-score.
The log fluorescence of `GACGATCTCAGCCTGGAGACGTGCTAG` is reported as -0.236 z-score.
For `TTCTCAACCAGTTTTCTTTTCGTGCTA`, the log fluorescence was 1.5 z-score.
The log fluorescence of `GACGAATTGAGACTGGAGACGTGCTAG` is reported as -0.132 z-score.
With `GACGATATCGGGTATCGGGACGTGCTA` the log fluorescence was 2.57 z-score.
